Published values from different studies.
Numbered parts are unrelated; each lists some results of a single study.
UniProt P53355, sequence (whole entry, looked up): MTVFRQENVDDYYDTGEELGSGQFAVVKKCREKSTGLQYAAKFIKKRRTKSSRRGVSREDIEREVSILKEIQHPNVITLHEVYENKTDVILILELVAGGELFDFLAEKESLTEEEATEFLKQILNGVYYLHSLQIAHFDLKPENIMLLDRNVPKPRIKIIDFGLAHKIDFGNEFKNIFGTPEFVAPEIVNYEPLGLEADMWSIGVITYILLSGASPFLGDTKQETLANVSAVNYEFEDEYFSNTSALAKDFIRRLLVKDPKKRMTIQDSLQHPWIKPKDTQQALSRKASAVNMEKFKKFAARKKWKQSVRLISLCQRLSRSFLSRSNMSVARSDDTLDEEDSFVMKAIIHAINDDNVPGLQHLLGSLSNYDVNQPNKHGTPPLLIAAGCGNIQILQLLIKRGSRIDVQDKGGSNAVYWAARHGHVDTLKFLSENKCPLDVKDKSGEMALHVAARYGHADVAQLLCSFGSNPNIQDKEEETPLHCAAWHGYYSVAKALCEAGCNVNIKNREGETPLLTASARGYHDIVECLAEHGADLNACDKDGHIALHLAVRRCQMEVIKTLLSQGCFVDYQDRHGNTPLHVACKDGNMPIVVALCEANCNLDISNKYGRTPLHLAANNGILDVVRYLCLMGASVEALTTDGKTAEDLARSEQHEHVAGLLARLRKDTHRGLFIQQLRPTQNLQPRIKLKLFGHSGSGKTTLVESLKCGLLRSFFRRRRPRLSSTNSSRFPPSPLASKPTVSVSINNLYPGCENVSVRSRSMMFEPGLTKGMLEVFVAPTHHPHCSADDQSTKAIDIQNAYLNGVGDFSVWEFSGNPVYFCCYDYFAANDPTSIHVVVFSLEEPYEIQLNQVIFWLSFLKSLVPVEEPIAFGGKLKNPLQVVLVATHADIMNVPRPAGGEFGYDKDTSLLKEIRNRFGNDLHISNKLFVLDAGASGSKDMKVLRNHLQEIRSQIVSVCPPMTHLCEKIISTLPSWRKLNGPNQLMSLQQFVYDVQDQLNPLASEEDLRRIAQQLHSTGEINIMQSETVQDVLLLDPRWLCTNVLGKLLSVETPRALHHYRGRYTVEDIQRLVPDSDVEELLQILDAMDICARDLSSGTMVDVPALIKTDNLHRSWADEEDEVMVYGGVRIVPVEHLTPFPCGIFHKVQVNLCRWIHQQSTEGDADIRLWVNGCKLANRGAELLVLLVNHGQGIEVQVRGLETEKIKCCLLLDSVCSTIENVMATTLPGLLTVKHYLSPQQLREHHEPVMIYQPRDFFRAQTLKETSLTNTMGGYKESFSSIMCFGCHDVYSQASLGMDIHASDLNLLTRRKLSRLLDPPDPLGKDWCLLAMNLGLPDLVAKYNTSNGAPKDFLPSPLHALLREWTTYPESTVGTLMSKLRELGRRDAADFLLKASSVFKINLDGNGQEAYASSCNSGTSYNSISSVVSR
UniProt P78368, sequence (whole entry, looked up): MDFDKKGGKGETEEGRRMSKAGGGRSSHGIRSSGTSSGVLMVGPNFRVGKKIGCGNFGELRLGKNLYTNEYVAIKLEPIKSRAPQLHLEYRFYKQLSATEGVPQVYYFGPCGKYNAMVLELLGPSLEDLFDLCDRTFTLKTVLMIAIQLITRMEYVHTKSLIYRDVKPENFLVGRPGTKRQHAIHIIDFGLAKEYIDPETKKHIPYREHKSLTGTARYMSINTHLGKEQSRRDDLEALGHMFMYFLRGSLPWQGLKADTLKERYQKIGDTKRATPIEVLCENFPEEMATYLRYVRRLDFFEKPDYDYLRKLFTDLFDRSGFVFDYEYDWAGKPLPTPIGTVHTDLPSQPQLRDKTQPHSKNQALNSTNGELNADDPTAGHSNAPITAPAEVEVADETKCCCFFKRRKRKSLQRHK
UniProt P11309, sequence (whole entry, looked up): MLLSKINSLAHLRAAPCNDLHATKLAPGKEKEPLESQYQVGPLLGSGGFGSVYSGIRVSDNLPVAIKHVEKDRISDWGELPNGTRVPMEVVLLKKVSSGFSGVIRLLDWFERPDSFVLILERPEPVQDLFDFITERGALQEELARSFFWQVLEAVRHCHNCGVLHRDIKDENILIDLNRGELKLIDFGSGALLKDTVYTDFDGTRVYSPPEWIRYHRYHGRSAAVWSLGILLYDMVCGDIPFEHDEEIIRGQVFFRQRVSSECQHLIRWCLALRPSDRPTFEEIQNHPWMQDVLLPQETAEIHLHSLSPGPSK
UniProt Q8TDR2, sequence (whole entry, looked up): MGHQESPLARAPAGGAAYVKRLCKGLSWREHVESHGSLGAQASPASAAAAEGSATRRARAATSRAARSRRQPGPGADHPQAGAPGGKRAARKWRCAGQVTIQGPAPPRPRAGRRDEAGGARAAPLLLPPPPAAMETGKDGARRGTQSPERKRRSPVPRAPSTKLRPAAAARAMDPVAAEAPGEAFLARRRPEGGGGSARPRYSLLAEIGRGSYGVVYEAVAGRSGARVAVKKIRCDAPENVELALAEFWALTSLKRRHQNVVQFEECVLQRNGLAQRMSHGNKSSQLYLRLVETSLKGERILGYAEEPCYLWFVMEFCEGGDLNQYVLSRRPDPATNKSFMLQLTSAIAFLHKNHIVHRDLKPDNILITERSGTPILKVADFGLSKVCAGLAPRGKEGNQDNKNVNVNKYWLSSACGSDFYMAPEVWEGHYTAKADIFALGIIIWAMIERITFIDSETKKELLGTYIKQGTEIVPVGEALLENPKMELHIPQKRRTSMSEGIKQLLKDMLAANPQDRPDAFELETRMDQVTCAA
UniProt P42338, sequence (whole entry, looked up): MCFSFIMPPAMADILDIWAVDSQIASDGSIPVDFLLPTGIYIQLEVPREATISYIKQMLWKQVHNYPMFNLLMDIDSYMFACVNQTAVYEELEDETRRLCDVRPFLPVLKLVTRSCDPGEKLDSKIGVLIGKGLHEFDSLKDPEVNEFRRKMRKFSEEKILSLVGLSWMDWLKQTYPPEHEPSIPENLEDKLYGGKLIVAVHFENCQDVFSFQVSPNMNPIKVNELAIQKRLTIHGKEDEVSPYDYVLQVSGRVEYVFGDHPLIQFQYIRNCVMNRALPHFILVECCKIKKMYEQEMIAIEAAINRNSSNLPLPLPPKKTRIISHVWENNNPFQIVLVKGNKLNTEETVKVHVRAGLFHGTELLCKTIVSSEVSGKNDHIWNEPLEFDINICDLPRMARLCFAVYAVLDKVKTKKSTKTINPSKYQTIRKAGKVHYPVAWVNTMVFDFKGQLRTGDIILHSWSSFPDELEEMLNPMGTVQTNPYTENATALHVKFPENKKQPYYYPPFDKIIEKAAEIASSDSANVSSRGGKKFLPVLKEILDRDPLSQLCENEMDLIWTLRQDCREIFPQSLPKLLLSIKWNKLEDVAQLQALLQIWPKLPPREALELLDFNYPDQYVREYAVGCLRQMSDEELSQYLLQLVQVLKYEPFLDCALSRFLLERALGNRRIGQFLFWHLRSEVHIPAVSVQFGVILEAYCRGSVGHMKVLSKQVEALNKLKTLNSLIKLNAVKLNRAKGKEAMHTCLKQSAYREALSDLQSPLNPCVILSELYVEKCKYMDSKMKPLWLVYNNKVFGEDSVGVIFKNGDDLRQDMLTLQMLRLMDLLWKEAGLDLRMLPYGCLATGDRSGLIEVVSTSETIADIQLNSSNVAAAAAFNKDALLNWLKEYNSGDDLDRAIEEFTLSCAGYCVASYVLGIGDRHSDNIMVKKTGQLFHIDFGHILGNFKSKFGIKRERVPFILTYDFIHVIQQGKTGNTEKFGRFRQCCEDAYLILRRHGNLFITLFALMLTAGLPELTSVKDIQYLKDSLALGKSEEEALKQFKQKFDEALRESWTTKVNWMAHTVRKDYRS

Series 1 — tested at: 5 µM
Structure (SMILES): O=C(Nc1cnn(-c2csc(C(=O)NC3COC3)c2)c1)Nc1ccccc1Cl
SRPK3: SRSF protein kinase 3 (SRPK3, Homo sapiens, UniProt Q9UPE1)
UniProt Q9UPE1, sequence (whole entry, looked up): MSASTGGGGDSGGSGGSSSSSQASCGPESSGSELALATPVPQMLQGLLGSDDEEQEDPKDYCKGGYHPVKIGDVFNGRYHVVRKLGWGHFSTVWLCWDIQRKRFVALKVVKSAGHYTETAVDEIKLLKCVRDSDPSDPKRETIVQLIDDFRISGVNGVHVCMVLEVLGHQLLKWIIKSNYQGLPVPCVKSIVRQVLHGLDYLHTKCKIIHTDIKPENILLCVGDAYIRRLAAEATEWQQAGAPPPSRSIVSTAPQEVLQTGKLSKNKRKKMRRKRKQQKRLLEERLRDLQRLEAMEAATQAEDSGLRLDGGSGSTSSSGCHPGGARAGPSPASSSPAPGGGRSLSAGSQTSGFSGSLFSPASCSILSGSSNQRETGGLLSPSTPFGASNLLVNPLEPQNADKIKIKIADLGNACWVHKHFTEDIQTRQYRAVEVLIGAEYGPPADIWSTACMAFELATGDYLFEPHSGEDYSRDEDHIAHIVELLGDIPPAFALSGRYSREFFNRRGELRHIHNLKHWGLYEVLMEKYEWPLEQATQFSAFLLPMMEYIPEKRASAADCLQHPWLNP
target | read-out | mode | method | baseline | remaining activity
Serine/threonine-protein kinase Nek3 (NEK3, Homo sapiens, UniProt P51956) | enzyme activity |  |  | untreated control | 99%
SRPK3 | kinase activity |  | kinase panel profiling |  | 91.9%
SRPK3 | enzyme activity |  |  | untreated control | 90.9%
Serine/threonine-protein kinase D3 (PRKD3, Homo sapiens, UniProt O94806) | enzyme activity |  |  | untreated control | 101%
Receptor-type tyrosine-protein kinase FLT3 (FLT3, Homo sapiens, UniProt P36888) | enzyme activity |  |  | untreated control | 88.4%
Mitogen-activated protein kinase kinase kinase 21 (MAP3K21, Homo sapiens, UniProt Q5TCX8) | enzyme activity | inhibitor |  |  | 93.2%
Tyrosine-protein kinase ABL2 (ABL2, Homo sapiens, UniProt P42684) | enzyme activity |  |  | untreated control | 92.3%

Series 2 — species: mouse; matrix: microsomes or S9; tested at: 2 µM; time: 0.5 h
SMILES | remaining compound
CC(C)c1nc(-c2cc3ccccc3nc2O)no1 | 0.0245%
Clc1ccc(Oc2nc3ccccc3o2)c2ncccc12 | 0%
CCn1ccnc1C(O)c1cc(OC)ccc1OC (centres unmarked) | 60.6%
CCN(CC)c1nc2c(S(=O)(=O)c3ccccc3)nnn2c2ccsc12 | 1.78%
CCOC(=O)c1cc(-c2ccc(S(=O)(=O)NC(C)(C)CC)s2)on1 | 0%

Series 3 — cell line: A-375; tested at: 100 µM; time: 18 h
Structure (SMILES) | viability [%]
CCN1CCN(c2cc3c(cc2F)c(=O)c(C(=O)O)cn3C2CC2)CC1 | 98.9
CC1(C)[C@@H]2CC[C@@]1(C)C(=O)C2 | 91
Cc1c(NC(=O)c2cccnc2)c(=O)n(-c2ccccc2)n1C | 78.9
CCN1CC(CCN2CCOCC2)C(c2ccccc2)(c2ccccc2)C1=O (centres unmarked) | 87.6
C[N+]1(C)CCC(=C(c2ccccc2)c2ccccc2)CC1 | 82.6
CCOc1ccc(NC(C)=O)cc1 | 95.7

Series 4 — read-out: enzyme activity; mode: inhibitor; tested at: 10 µM
Target: Calcium/calmodulin-dependent protein kinase type II subunit alpha (CAMK2A, Homo sapiens, UniProt Q9UQM7)
UniProt Q9UQM7, sequence (whole entry, looked up): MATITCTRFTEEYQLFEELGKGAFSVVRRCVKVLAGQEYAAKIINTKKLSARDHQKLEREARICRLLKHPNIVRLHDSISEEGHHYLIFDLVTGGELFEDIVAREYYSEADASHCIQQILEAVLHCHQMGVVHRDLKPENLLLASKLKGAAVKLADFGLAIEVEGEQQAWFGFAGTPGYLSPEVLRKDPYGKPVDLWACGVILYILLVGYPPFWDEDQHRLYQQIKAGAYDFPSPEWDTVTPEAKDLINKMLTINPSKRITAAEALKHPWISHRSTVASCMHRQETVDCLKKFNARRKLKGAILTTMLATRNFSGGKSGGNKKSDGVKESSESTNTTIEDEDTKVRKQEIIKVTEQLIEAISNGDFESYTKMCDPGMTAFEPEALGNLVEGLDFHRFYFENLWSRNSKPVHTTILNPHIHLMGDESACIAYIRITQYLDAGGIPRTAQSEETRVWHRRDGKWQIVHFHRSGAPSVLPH
Structure (SMILES) | inhibition [%]
CC(C)(C)[C@H](NC(=O)C(F)(F)F)C(=O)N1C[C@H]2[C@@H]([C@H]1C(=O)N[C@H](C#N)C[C@@H]1CCNC1=O)C2(C)C | -1
COCC1=C(C(=O)OC(C)OC(=O)OC(C)C)N2C(=O)[C@@H](NC(=O)/C(=N\OC)c3csc(N)n3)[C@H]2SC1 (some centres unmarked) | 0
CCN(CC)CCOC(=O)C(c1ccccc1)c1ccccc1 | -10
C=C(CC[C@@H](C(=O)O)[C@H]1[C@H](O)C[C@@]2(C)C3=CC[C@H]4C(C)(C)C(=O)CC[C@]4(C)C3=CC[C@]12C)C(C)C | 28
NC(Cc1ccc(O)c(O)c1)C(=O)O (racemic) | -5
CCOC(=O)C1=C(C)NC(C)=C(C(=O)OC)C1c1cccc(Cl)c1Cl (centres unmarked) | -12
COc1ccc(C(=O)N2CCN(c3ccc4c(c3)CCC(=O)N4)CC2)cc1OC | -1
C[C@@H](c1ncncc1F)[C@](O)(Cn1cncn1)c1ccc(F)cc1F | 6
COC(=O)C1=COC(O[C@@H]2O[C@H](CO)[C@@H](O)[C@H](O)[C@H]2O)/C(=C/C(=O)O)C1CC(=O)OCCc1ccc(O)c(O)c1 (some centres unmarked) | 9

Series 5 — method: competition with immobilised ligand; tested at: 1 µM
Structure (SMILES): CN(C)CC#Cc1ccc(OCCCc2sc(N3CCc4cccc(C(=O)Nc5nc6ccccc6s5)c4C3)nc2C(=O)O)c(F)c1
target | read-out | remaining binding [%]
Vascular endothelial growth factor receptor 3 (FLT4, Homo sapiens, UniProt P35916) | cell-free assay | 100
Mitogen-activated protein kinase 4 (MAPK4, Homo sapiens, UniProt P31152) | cell-free assay | 89
SRSF protein kinase 3 (SRPK3, Homo sapiens, UniProt Q9UPE1) | cell-free assay | 100
Tyrosine-protein kinase Tec (TEC, Homo sapiens, UniProt P42680) | binding | 97
Tyrosine-protein kinase ABL1, non-phosphorylated (ABL1, Homo sapiens, UniProt P00519, T315I) | cell-free assay | 51
Glycogen synthase kinase-3 alpha (GSK3A, Homo sapiens, UniProt P49840) | cell-free assay | 89
Casein kinase I isoform gamma-1 (CSNK1G1, Homo sapiens, UniProt Q9HCP0) | cell-free assay | 91
Serine/threonine-protein kinase PLK3 (PLK3, Homo sapiens, UniProt Q9H4B4) | cell-free assay | 92
Phosphatidylinositol 4,5-bisphosphate 3-kinase catalytic subunit beta isoform (PIK3CB, Homo sapiens, UniProt P42338) | cell-free assay | 100
Serine/threonine-protein kinase 35 (STK35, Homo sapiens, UniProt Q8TDR2) | cell-free assay | 86
Mitogen-activated protein kinase kinase kinase 7 (MAP3K7, Homo sapiens, UniProt O43318) | cell-free assay | 100
Cyclin-dependent kinase 7 (CDK7, Homo sapiens, UniProt P50613) | cell-free assay | 100
Cyclin-dependent kinase 5 (CDK5, Homo sapiens, UniProt Q00535) | cell-free assay | 100
Serine/threonine-protein kinase pim-1 (PIM1, Homo sapiens, UniProt P11309) | cell-free assay | 100
Beta-adrenergic receptor kinase 1 (GRK2, Homo sapiens, UniProt P25098) | cell-free assay | 100
Death-associated protein kinase 1 (DAPK1, Homo sapiens, UniProt P53355) | cell-free assay | 91
Serine/threonine-protein kinase PRP4 homolog (PRPF4B, Homo sapiens, UniProt Q13523) | cell-free assay | 100
Death-associated protein kinase 2 (DAPK2, Homo sapiens, UniProt Q9UIK4) | cell-free assay | 90
Insulin-like growth factor 1 receptor (IGF1R, Homo sapiens, UniProt P08069) | cell-free assay | 98
Phosphatidylinositol 4,5-bisphosphate 3-kinase catalytic subunit alpha isoform (PIK3CA, Homo sapiens, UniProt P42336, H1047L) | cell-free assay | 68
Serine/threonine-protein kinase B-raf (BRAF, Homo sapiens, UniProt P15056) | cell-free assay | 100
Macrophage colony-stimulating factor 1 receptor (CSF1R, Homo sapiens, UniProt P07333) | cell-free assay | 100
Casein kinase I isoform gamma-2 (CSNK1G2, Homo sapiens, UniProt P78368) | cell-free assay | 92

A few entries again (series 2):
SMILES | remaining compound
CCn1ccnc1C(O)c1cc(OC)ccc1OC (centres unmarked) | 60.6%
CC(C)c1nc(-c2cc3ccccc3nc2O)no1 | 0.0245%
CCOC(=O)c1cc(-c2ccc(S(=O)(=O)NC(C)(C)CC)s2)on1 | 0%
CCN(CC)c1nc2c(S(=O)(=O)c3ccccc3)nnn2c2ccsc12 | 1.78%
Clc1ccc(Oc2nc3ccccc3o2)c2ncccc12 | 0%
